# Measurements gathered from unrelated publications.
# ± gives the spread as reported.
Structure (SMILES),test,test system,conditions,how to read,endpoint,result
CCOP(=O)(OCC)OCCCCOC(=O)CC1=C(C)C(=Cc2ccc([S+](C)[O-])cc2)c2ccc(F)cc21 (centres unmarked),,"mice, lung","inhalation, 6.5 mg/kg",relative to: drug plus metabolites,intact drug in lungs,43%
COc1cc(NC(=O)C(=O)c2c(C)n(Cc3ccc(Cl)cc3)c3ccc(C)cc23)ccn1,,"male cynomolgus monkey, plasma","intravenous, 1 mg/kg",,Vz,11.2 L/kg
COC(=O)C[C@](O)(CCCC(C)(C)OC(C)=O)C(=O)O[C@@H]1C(OC)=C[C@]23CCCN2CCc2cc4c(cc2[C@H]13)OCO4,,"CD1 mouse, liver","subcutaneous, 1 mg/kg, 0.5 h",,tissue concentration,435 ng/mL
CCNc1cc2[o+]c3cc(NCC)c(C)cc3c(-c3ccccc3C(=O)OCCOCC[18F])c2cc1C,,"rat, thyroid/trachea",30 min,,tissue uptake,1.05 ± 0.34 %ID/g
COc1cc2c3c(c4cc(OC)c(OC)cc4c2cc1OC)C(=O)N1CCCCC1C3 (centres unmarked),,swine cells,24 (unit not given),,CC50,> 100 µM
CCCCCCCCCCCCC(=O)O.O=C1CCCC2C3CCCN4CCCC(CN12)C34 (centres unmarked),,water,"concentration not given, 313.15 K",,critical micelle concentration,0.00255 mol/kg
O=c1cc(-c2ccccc2)oc2c(Br)c(O)c(O)c(O)c12,,"C57BL/6 mouse, plasma","intravenous, 10 mg/kg, single dose",,Vd,0.108 L
"O=C(c1ccc(F)cc1)C1CCN(C2Cc3c(cccc3OCC[18F])CC2O)CC1 (single isomer, unassigned; (-))",,"Sprague-Dawley rat, male, lung","intravenous, dose not given, 5 min",,tissue uptake,2.25 ± 0.415 %ID/g
[2H]C([2H])([2H])C([2H])([2H])C([2H])([2H])OC(C(=O)OC1CCNCC1)(c1ccccc1)c1ccccc1,measured: vomiting,healthy Japanese male,"oral, 10 mg, 16 days, multiple ascending dose",,adverse drug reactions,0%
Cc1ccc(/C=C/C(=O)O)cc1-c1cc2c(cc1C)C(C)(C)CCC2(C)C,,"Sprague-Dawley rat, male","oral, 100 mg/kg, 3 h, sesame oil vehicle",,blood cholesterol,81 ± 14.8 mg/dL
O=C(O)CCC(NP(=O)(O)OCCC[C@@H](NC(=O)CCC(NC(=O)CCCCCNC(=O)c1ccc([18F])cc1)C(=O)O)C(=O)O)C(=O)O (some centres unmarked),radioactivity biodistribution,"mouse, PC-3 xenograft, tumour, blood",2 h,,tumour/blood ratio,9.15 ± 3.76

# Repeated from above:
Structure (SMILES),test,test system,conditions,how to read,endpoint,result
CCCCCCCCCCCCC(=O)O.O=C1CCCC2C3CCCN4CCCC(CN12)C34 (centres unmarked),,water,"concentration not given, 313.15 K",,critical micelle concentration,0.00255 mol/kg
O=C(O)CCC(NP(=O)(O)OCCC[C@@H](NC(=O)CCC(NC(=O)CCCCCNC(=O)c1ccc([18F])cc1)C(=O)O)C(=O)O)C(=O)O (some centres unmarked),radioactivity biodistribution,"mouse, PC-3 xenograft, tumour, blood",2 h,,tumour/blood ratio,9.15 ± 3.76
